Results collected from several papers.
Parts stem from different laboratories: compare values within a part only. Changes are numbered by the printed parent chain.

Sample 1
Target: ABI1, truncated, D143A, DHFR fusion (Arabidopsis thaliana, UniProt P49597)
Technique: DHFR PCA, dose-response
Medium: yeast
Notes: Hill fit, mean, not affinity
Added: (+)-ABA, dose series
Direction: lower = more sensitive
Starting sequence: PYL1, truncated, DHFR fusion (Arabidopsis thaliana, UniProt Q8VZS8); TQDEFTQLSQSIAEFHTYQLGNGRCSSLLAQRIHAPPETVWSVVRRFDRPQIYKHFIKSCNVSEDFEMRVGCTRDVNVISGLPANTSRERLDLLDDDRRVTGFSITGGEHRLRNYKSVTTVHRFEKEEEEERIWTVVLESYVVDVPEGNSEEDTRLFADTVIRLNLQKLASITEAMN
Substitution	ABA EC50 [µM]
F5I	6.02
P146H	620
R113I	6.41
T1C	1.44
S150A	46.4
D96A	169
Q167A	0.968
N114E	125
D153M	336
C72N	4.93
E109C	11.6
D144S	18.3
E174H	17
S104M	162
R46L	18.7
V142W	73.1
C25W	374
C72Q	3.97

Sample 2
Target: JUND, bZIP domain (human)
Technique: DHFR protein complementation
Medium: yeast
Notes: single substitutions, most at no-binding floor
Reference: wild-type JUN-FOS pair
Direction: higher = stronger binding
Starting sequence: JUN, bZIP domain (human); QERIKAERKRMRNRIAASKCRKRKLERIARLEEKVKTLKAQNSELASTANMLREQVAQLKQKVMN
Substitution	binding fitness
L45E	-1.26 natural log
N42S	-1.34 natural log
N42P	-1.41 natural log
L52H	-1.45 natural log
L38V	-1.44 natural log
I28F	-1.29 natural log
E44W	-1.25 natural log
V56P	-1.43 natural log
L45G	-1.46 natural log
N42M	-1.38 natural log
A49K	-1.29 natural log

Sample 3
Target: Histone acetyltransferase KAT6A, winged helix 2, GST fusion (KAT6A, Homo sapiens, UniProt Q92794, residues 85-181)
Technique: protein binding microarray
Molecule type: double-stranded DNA, one strand shown
Medium: in vitro
Concentration: not given
Notes: 8-mer, flanks averaged, mean of 2 arrays, mostly near background
Reference: not given
Direction: higher = stronger binding
Residues (chain): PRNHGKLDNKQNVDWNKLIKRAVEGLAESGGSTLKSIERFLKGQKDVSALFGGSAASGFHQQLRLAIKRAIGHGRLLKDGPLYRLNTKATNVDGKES
Sequence	E-score
ATCGTTCA	-0.106
GCAGAGCC	0.167
AGGCCATA	-0.0389
CGGTATAC	-0.111
GGCATGAC	-0.155
ACGATGAA	-0.0924
ACATTCAG	-0.285
CGTCGTAA	-0.239
AGACGTGC	-0.093
CCTTCTGA	0.11
ATGTCGGG	0.0281
AACTGATT	-0.176
CCTCATCG	-0.0446
GACGCAAA	0.136
AGACTTGC	-0.184
ATGCCGAA	0.023
AGCATAGG	-0.11
ATCTCCCC	-0.138
ACGATGTC	-0.218
AGGGGGTG	-0.00067
TTAACGAA	0.134
CACCCATG	0.0389
TAACTAGA	-0.0364
CCATGGTC	-0.0895

Sample 4
Target: UBE2L6 UBC core domain (UniProt O14933)
Chain of UniProt O14933 (whole entry, looked up): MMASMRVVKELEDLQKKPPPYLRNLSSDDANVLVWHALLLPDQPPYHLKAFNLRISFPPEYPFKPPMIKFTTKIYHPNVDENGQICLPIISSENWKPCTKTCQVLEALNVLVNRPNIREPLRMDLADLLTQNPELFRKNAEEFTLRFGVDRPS
Technique: yeast two-hybrid
Medium: yeast
Notes: mostly zero background
Reference: not given
Direction: higher = stronger interaction
B1: RNF130 RING domain (UniProt Q86XS8); chain DKETDPDFDHCAVCIESYKQNDVVRILPCKHVFHKSCVDPWLSEHCTCPMCKLNILKALGIV
B2: NHLRC1 RING domain (UniProt Q6VVB1); chain MREAEISLLECKVCFEKFGHRQQRRPRNLSCGHVVCLACVAALAHPRTLALECPFCRRACRGCDTSD
B3: MDM2 RING domain (UniProt Q00987); chain TQDKEESVESSLPLNAIEPCVICQGRPKNGCIVHGKTGHLMACFTCAKKLKKRNKPCPVCRQPIQMIVLTYFP
B4: TRIM68 RING domain (UniProt Q6AZZ1); chain LVEAIVEEVACPICMTFLREPMSIDCGHSFCHSCLSGLWEIPGESQNWGYTCPLCRAPVQPRNLRP
B5: UBE4B RING domain (UniProt O95155); chain KNARAEIDYSDAPDEFRDPLMDTLMTDPVRLPSGTIMDRSIILRHLLNSPTDPFNRQTLTESMLEPVPELKEQIQAWMREKQNSDH
B6: RNF11 RING domain (UniProt Q9Y3C5); chain RDGSEKKIRECVICMMDFVYGDPIRFLPCMHIYHLDCIDDWLMRSFTCPSCMEPVDAALLSS
B7: RNF7 RING domain (UniProt Q9UBF6); chain AICRVQVMDACLRCQAENKQEDCVVVWGECNHSFHNCCMSLWVKQNNRCPLCQQDWVVQRIGK
B8: TRIM34 RING domain (UniProt Q9BYJ4); chain ILLNVQEEVTCPICLELLTEPLSLDCGHSLCRACITVSNKEAVTSMGGKSSCPVCGISYSFEHLQA
B9: RNF17 RING domain (UniProt Q9BXT8); chain SQPWGAAEIQCTRCGRRVSRSSGHHCELQCGHAFCELCLLMTEECTTIICPDCEVATAVNTRQR
B10: SHPRH RING domain (UniProt Q149N8); chain KTSGGVNPEPCPICARQLGKQWAVLTCGHCFCNECISIIIEQYSVGSHRSSIKCAICRQTTSHKEISY
B11: RNF115 RING domain (UniProt Q9Y4L5); chain TQEQVDMGLECPVCKEDYTVEEEVRQLPCNHFFHSSCIVPWLELHDTCPVCRKSLNGEDSTR
B12: RNF10 RING domain (UniProt Q8N5U6); chain VRICSHEVPSCPICLYPPTAAKITRCGHIFCWACILHYLSLSEKTWSKCPICYSSVHKKDLKS
Sequence	lacZ reporter activity
B1 (RNF130 RING domain)	0
B2 (NHLRC1 RING domain)	0
B3 (MDM2 RING domain)	0
B4 (TRIM68 RING domain)	0
B5 (UBE4B RING domain)	0
B6 (RNF11 RING domain)	0
B7 (RNF7 RING domain)	0
GSEEEEIPFRCFICRQAFQNPVVTKCRHYFCESCALEHFRATPRCYICDQPTGGIFNPA (RNF113B RING domain (UniProt Q8IZP6))	0
VPADASPDSKCPICLDRFDNVSYLDRCLHKFCFRCVQEWSKNKAECPLCKQPFDSIFHSV (TOPORS RING domain (UniProt Q9NS56))	2190
B8 (TRIM34 RING domain)	0
B9 (RNF17 RING domain)	0
B10 (SHPRH RING domain)	0
B11 (RNF115 RING domain)	0
AAQLLEEKLTCAICLGLYQDPVTLPCGHNFCGACIRDWWDRCGKACPECREPFPDGAELR (TRIM65 RING domain (UniProt Q6PJ69))	0
B12 (RNF10 RING domain)	0

Sample 5
Target: RING finger protein unkempt homolog, zinc fingers 1-6, SBP tag (UNK, Homo sapiens, UniProt Q9C0B0, residues 30-357)
Chain of UniProt Q9C0B0 (30-357, looked up): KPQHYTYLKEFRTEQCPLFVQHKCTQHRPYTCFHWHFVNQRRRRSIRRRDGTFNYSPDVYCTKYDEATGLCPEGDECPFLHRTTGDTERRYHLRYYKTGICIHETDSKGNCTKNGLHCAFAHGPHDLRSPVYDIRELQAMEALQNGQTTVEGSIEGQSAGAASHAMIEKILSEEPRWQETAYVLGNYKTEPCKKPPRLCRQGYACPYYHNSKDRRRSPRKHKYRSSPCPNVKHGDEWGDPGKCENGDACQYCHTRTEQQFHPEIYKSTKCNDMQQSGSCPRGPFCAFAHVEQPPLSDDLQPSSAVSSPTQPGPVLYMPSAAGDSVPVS
Technique: RNA Bind-n-Seq
Molecule type: RNA
Medium: in vitro
Concentration: 100 nM
Notes: RNA with constant flanks, vertebrate orthologous sites, ends assumed
Reference: input RNA pool
Direction: higher = stronger binding
Shared flanks, not repeated: GGGAGUUCUACAGUCCGACGAUC … CAACAGAGGAUUGAGCAUCA
Sequence	bound/input enrichment [ratio]
CAUGUCCUUUGUACUGUGGUAUUCAGAACAGCCACAGUACUCACUUUUUCCAAAUGAUUCUAGUAAUUGCCUAGAAAUAUCUUUUUCUUACCUGUUAUUUAUCAAUUUUUCCCAGUAUUU	1.53
GAGAGUCCCCAUUGUCACUGAGAACCACCAAAUCUGACUUUUACAUUUGGUCUCAGAAUUUAGGUUCCUGCCCUGUUUUUUUUUUUUUUUUUUUUUUAAACAGUUUUCAAAAGUUCUUAA	1.83
GGCUGCUUGAGCUAUAGGAAAAUGAGCUUUGCAUUUUAUACGUAUAUAUGUAUAUUUAAAUAGAAUACUUUUAUAUGAUGGGUGCUUUGCGUGUGAAUGCAGCAGGCUCUCAGAGGUACU	0.389
ACGUGGACGGCAGCGAGGAAAAACCAGCCCCCCCUUCACUAGGAGAUACAAACGUUGACAUAGAAGAGCAAUUAAAUUCAAUAAAUUUAUCUUUUCAGGAUGAUCCAGACUCCAGUACCA	0.848
AUUUUUUAAAGUUUUUUUAAUUUAAAUUUUCCUUUUGGGGGUACAGUUUGCUCUACCAAAUAGUGAUCGUAACAAAUUGAUCUGUUUUGGAUGUUGCUAUAGUGACAUGCAGUUAUAUAU	0.611
CAUAGGCUGUUUAAGCUGUGGGAAAAUGAGCUUUUCUUUUUAUAUAUAUAUAUAUUUAAAUAGGAUACUUUUAUAUGAUGGGUGCUUUGAGUGUGAAUGCAGCAGGCUCUCUAUUUCAGA	1.12
GCAAACCCCAUCACUGUGAUAUUUAAAAUAUGCACAGUCUUAAUUCUUUCCAAAUGAUCCUAGUAUUUUUCUAGCUCUAUCUUUGUAUCUCAUACUGUUAUUUAUCAGAAUUUUUCCCUG	1.74
AGUAUGUGUGUACAUUAUUCACAUUCCUCUCUGUUCUGUUGAAAGGAAAAAAAGACAUUUUGACCUUUUUUUAAGGUUAUUGACUUAAUUUUAUGUUAUUUGGUUGCAUGAAGUUGCCCU	0.254
GGGACGCUUUGAUAUUAAAUUUGACAUAAAAAGCAGCUGAUUGUAAGCACAACUCUCUCCUAGCCAUUUAAAAAGGUAAAAAACAAAAAAGAAAAUCUACUAGUCUUGAACAAACUGUCA	1.45
UCCCGGCAGCGCCAGCGGGGGUAGGCGCCCUUCUCACCCUGCUCCUUCUUUAUUCUAUUUUCCUCAGGACUGACCCUGAGGCUCCUGCUUUUGUGGUUCAUCUCGUAUUUAUUUACCUUU	1.07
GAACCCUAGUUUGUGUGCGCGUUAUCCACAUUCCUCUCUGUUCUGUUGGGAAAAGACAUUUUAACCUUUUUUAAGGUUGAUUUAAGUUCAUAUUAUUUGGUUGCAUGAAGUUGCCCUUAA	0.446

Sample 6
Target: CCNB3, cyclin fold, Cln2 fusion (human)
Technique: yeast growth competition, sequencing
Medium: yeast
Notes: weak parent motif
Reference: not given
Direction: higher = stronger binding
Starting sequence: LLGL2 docking peptide (human); KSLKKSLRQSFRR; partner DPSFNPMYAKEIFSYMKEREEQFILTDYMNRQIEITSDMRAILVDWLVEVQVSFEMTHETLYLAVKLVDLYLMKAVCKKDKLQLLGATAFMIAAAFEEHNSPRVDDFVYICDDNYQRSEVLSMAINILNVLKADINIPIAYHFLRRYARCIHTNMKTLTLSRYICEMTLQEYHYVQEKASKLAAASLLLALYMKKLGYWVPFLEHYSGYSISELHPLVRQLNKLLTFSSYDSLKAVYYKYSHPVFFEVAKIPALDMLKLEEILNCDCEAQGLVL
Substitution	normalised enrichment score
S10A	0.242
K5A	0.489
S2A	0.145
K4A	0.463
F11A	-0.181
L7A	0.303
Q9A	0.696

Repeated from above (sample 1):
Substitution	ABA EC50 [µM]
T1C	1.44
S150A	46.4
D96A	169
Q167A	0.968
N114E	125
D153M	336
C72N	4.93
